Measurements gathered from unrelated publications.
A part holds a random share of what one study measured.

Series 1 — method: universal PBM; molecule type: double-stranded DNA, one strand shown; matrix: in vitro; concentration: not given; direction: higher = stronger binding
Target: Sal-like protein 4, full length isoform B (SALL4, Homo sapiens, UniProt Q9UJQ4-2, residues 1-616)
Setting: 8-mer, flanks averaged, mean of replicates
Target sequence (chain): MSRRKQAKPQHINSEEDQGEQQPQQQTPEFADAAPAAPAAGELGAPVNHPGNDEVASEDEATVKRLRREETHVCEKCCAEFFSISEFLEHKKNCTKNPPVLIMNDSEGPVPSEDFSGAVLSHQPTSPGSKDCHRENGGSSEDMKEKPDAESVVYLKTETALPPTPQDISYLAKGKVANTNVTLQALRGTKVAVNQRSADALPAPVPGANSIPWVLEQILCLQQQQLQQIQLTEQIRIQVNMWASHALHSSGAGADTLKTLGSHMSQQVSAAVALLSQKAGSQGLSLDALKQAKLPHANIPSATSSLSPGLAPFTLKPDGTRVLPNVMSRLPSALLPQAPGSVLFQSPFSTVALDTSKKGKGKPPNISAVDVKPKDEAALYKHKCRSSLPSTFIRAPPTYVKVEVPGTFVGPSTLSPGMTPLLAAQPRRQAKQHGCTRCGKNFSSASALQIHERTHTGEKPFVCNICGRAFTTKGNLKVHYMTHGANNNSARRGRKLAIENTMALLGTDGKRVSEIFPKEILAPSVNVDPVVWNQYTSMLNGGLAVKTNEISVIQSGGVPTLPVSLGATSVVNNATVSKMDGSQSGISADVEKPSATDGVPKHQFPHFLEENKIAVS
The E-score of `GACAGGAA` is reported as 0.00376.
`GTCAGAAA` has an E-score of 0.116.
With `ACTTGAGC` the E-score was -0.137.
For `AGAGATAA`, the E-score was 0.213.

Series 2 — method: protein-binding microarray; molecule type: double-stranded DNA, one strand shown; matrix: in vitro; concentration: 0.8 µM; setting: whole 60-bp probe, no competitor; direction: higher = stronger binding; shared flanks, not repeated: … GTCTTGATTCGCTTGACGCTGCTG
Target: Centromere-binding protein 1, full length, N-terminal tag (CBF1, Saccharomyces cerevisiae, UniProt P17106, residues 1-351)
Sequence of UniProt P17106 (whole entry, looked up): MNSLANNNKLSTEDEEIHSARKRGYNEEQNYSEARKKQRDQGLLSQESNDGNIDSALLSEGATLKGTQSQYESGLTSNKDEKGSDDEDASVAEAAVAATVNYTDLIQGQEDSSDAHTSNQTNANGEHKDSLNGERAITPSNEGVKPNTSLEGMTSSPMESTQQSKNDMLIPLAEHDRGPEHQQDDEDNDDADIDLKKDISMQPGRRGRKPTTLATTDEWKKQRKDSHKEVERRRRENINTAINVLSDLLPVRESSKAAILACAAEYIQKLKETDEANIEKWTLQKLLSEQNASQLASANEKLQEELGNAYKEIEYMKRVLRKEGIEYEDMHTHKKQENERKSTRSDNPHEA
The fluorescence intensity of `CTATTATATGGTAAATACGTGACAGTGTTCTACTTC` is reported as 614 a.u.
The fluorescence intensity of `CCTAACTACTATACACTGGTGATATAGCTTCGTACA` is reported as 517 a.u.
`CCTAACTACTATACAAGCGTGCCATAGCTTCGTACA` gave a fluorescence intensity of 534 a.u.
The fluorescence intensity of `CTAATAGTTATGAAATACCTGATGAAACGCTTCTTC` is reported as 523 a.u.
The fluorescence intensity of `GAAAGGGATCCACGTCACGCCGTGCGCGGAACGTAG` is reported as 997 a.u.

Further values, each from its own experiment
UNK zinc fingers 1-6, GST-SBP tag: RING finger protein unkempt homolog, zinc fingers 1-6, GST-SBP tag (UNK, Homo sapiens, UniProt Q9C0B0, residues 30-357)
Sequence of UniProt Q9C0B0 (30-357, looked up): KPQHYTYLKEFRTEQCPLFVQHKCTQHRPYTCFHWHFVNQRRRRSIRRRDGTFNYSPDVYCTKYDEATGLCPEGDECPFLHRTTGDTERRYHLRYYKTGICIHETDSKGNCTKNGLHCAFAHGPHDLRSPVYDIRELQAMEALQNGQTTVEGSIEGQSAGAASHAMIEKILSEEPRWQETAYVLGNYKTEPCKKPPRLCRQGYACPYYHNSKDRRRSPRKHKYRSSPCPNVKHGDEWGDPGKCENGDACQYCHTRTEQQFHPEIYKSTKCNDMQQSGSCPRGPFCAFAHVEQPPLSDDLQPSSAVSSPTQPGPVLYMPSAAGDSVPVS
For `GGGAGUUCUACAGUCCGACGAUCCCAAUUGUGGAGCAGUACUUGAAGACAAAAAAGAACUCUAAUAAUUUAAUCAUCAAGUACAUUAGCUGCCGCCUGCUGACACUCAUCAUUAUACUGUUGGCAUGUAUCUACCUGGGCUAUCAACAGAGGAUUGAGCAUCA`, the bound/input enrichment was 0.443 ratio (UNK zinc fingers 1-6, GST-SBP tag; RNA Bind-n-Seq; RNA, in vitro; not given, RNA with constant flanks, human-mouse chimeric sites, ends assumed; reference: input RNA pool, higher = stronger binding).
`PhoQ, residues 284 288 289 292 302 303 AMDMFI` has a fold induction of 0.625 (PhoP, residues 12 14 15 18 19 LHATL (Escherichia coli, UniProt P23836); Sort-seq, refers to: YFP reporter; E. coli; PhoQ-PhoP variant library, added: 10 µM Mg2+; reference: high Mg2+ state, higher = stronger signaling).
For `GGGAGUUCUACAGUCCGACGAUCGUGACUGACAUUAAAAUUUACCCUCAGCAAAGAAGUGCAGUAGUCACCAUAAUUCCAUCUGUGGUGAGUGCCAGUCAGAUUGUGGAGCUGGUCCCAGACCUCAGUUUAGACAUGGGAACUCAACAGAGGAUUGAGCAUCA`, the bound/input enrichment was 0.316 ratio (UNK zinc fingers 1-6, GST-SBP tag; RNA Bind-n-Seq; RNA, in vitro; not given, RNA with constant flanks, human-mouse chimeric sites, ends assumed; reference: input RNA pool, higher = stronger binding).
`GGGAGUUCUACAGUCCGACGAUCAUCACAGCCUGUGAACUGGCCAACGGCCAUGUCCCCUUUAAGGAUAUGCCUGCCACCCAGAUGCUGCUAGAGAAACUGAACGGCACAGUGCCCUGCCUGUUGGAUACCAGCACCAUCCCCCAACAGAGGAUUGAGCAUCA` gave a bound/input enrichment of 0.131 ratio (UNK zinc fingers 1-6, GST-SBP tag; RNA Bind-n-Seq; RNA, in vitro; not given, RNA with constant flanks, human and mouse sites, ends assumed; reference: input RNA pool, higher = stronger binding).

Some of these lines once more (further values, each from its own experiment):
For `GGGAGUUCUACAGUCCGACGAUCGUGACUGACAUUAAAAUUUACCCUCAGCAAAGAAGUGCAGUAGUCACCAUAAUUCCAUCUGUGGUGAGUGCCAGUCAGAUUGUGGAGCUGGUCCCAGACCUCAGUUUAGACAUGGGAACUCAACAGAGGAUUGAGCAUCA`, the bound/input enrichment was 0.316 ratio (UNK zinc fingers 1-6, GST-SBP tag; RNA Bind-n-Seq; RNA, in vitro; not given, RNA with constant flanks, human-mouse chimeric sites, ends assumed; reference: input RNA pool, higher = stronger binding).
For `GGGAGUUCUACAGUCCGACGAUCCCAAUUGUGGAGCAGUACUUGAAGACAAAAAAGAACUCUAAUAAUUUAAUCAUCAAGUACAUUAGCUGCCGCCUGCUGACACUCAUCAUUAUACUGUUGGCAUGUAUCUACCUGGGCUAUCAACAGAGGAUUGAGCAUCA`, the bound/input enrichment was 0.443 ratio (UNK zinc fingers 1-6, GST-SBP tag; RNA Bind-n-Seq; RNA, in vitro; not given, RNA with constant flanks, human-mouse chimeric sites, ends assumed; reference: input RNA pool, higher = stronger binding).
